Published values gathered from unrelated publications.
Every numbered part comes from another study and shows a few of its results, in no order. Values joined by “and” are separate records of one study, mostly repeats; a detail may differ.
UniProt O94804, sequence (whole entry, looked up): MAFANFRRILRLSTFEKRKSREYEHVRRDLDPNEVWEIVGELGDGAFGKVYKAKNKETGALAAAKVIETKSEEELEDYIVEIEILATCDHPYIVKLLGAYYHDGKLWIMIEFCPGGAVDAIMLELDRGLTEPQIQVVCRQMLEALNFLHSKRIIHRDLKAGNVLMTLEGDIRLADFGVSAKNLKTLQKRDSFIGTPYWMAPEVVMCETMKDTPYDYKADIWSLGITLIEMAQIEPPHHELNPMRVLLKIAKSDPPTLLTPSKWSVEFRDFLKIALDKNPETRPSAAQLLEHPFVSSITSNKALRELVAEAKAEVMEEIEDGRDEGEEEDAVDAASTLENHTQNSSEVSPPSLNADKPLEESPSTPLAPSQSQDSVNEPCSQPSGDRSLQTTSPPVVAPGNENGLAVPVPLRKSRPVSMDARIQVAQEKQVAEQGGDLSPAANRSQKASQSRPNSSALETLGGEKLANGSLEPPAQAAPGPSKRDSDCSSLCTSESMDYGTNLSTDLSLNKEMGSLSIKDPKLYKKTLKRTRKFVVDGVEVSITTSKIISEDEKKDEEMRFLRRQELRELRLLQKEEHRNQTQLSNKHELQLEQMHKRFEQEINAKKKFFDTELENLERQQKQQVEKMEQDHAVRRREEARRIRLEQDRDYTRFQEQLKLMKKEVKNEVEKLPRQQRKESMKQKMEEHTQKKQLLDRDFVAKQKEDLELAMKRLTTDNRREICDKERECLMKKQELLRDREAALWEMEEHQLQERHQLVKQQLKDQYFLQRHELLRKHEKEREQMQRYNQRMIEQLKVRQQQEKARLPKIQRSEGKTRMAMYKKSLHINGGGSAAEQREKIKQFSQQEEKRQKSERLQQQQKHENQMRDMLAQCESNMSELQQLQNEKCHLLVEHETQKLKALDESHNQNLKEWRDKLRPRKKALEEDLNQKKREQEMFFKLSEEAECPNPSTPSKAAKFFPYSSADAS
UniProt O95747, sequence (whole entry, looked up): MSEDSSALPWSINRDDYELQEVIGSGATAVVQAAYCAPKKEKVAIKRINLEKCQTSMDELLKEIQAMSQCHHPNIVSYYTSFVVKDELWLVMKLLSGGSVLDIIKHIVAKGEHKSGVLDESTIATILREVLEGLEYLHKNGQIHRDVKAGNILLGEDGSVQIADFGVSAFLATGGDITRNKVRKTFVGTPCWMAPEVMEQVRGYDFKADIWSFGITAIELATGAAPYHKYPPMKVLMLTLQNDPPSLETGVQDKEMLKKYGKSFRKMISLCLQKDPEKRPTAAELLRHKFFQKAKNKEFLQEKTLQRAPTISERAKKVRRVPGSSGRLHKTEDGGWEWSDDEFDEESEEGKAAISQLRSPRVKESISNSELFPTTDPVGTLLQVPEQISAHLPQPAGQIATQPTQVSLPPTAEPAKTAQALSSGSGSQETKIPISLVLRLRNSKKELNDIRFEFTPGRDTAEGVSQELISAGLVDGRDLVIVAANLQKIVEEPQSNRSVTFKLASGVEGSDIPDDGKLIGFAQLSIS
UniProt P37173, sequence (whole entry, looked up): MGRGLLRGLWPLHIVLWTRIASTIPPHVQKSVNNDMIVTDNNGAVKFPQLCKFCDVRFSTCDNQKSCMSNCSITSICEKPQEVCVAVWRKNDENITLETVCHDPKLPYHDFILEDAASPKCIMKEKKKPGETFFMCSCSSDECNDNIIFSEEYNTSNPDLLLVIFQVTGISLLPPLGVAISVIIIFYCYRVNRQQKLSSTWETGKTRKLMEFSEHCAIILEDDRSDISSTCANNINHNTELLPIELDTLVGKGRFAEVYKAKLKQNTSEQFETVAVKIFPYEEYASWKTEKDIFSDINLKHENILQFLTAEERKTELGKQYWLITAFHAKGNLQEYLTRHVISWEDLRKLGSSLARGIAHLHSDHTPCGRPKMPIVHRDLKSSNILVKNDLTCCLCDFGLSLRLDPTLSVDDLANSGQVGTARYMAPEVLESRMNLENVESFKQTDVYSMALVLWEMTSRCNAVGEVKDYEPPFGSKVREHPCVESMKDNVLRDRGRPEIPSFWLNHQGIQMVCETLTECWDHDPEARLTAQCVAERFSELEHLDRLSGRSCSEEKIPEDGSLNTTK
UniProt Q8TBX8, sequence (whole entry, looked up): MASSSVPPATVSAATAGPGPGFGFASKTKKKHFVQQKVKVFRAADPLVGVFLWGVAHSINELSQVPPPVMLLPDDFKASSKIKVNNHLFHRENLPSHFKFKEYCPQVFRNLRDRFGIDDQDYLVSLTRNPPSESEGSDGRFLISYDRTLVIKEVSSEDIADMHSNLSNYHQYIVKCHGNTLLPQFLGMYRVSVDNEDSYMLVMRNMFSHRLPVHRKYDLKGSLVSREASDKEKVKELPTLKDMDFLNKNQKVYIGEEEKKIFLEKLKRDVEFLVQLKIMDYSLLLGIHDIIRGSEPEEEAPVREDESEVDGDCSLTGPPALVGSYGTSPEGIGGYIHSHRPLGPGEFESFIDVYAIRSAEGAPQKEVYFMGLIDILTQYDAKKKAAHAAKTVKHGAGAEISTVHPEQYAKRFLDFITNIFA
UniProt P45984, sequence (whole entry, looked up): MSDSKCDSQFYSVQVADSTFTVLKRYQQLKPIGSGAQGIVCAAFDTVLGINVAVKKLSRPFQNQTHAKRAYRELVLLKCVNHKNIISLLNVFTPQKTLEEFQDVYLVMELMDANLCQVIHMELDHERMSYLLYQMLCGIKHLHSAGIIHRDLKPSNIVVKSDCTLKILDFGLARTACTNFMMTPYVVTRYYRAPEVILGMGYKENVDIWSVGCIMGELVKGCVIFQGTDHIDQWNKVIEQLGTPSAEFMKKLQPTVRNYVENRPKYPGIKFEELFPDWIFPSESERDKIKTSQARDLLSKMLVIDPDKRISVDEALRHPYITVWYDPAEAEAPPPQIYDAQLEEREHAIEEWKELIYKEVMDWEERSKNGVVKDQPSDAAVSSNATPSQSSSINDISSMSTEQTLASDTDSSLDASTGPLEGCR
UniProt P51955, sequence (whole entry, looked up): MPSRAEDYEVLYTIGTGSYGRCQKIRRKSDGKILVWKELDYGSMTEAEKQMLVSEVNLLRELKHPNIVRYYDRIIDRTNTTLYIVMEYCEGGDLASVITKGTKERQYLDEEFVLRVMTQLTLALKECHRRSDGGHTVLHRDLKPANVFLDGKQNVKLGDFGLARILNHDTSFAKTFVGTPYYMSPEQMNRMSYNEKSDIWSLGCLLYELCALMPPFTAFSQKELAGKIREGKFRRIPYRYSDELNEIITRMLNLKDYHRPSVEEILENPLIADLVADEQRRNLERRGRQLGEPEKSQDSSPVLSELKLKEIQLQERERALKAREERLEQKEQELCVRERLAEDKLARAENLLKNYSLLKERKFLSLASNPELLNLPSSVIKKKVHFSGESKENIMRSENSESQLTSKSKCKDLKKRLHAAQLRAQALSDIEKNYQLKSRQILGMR
UniProt Q16816, sequence (whole entry, looked up): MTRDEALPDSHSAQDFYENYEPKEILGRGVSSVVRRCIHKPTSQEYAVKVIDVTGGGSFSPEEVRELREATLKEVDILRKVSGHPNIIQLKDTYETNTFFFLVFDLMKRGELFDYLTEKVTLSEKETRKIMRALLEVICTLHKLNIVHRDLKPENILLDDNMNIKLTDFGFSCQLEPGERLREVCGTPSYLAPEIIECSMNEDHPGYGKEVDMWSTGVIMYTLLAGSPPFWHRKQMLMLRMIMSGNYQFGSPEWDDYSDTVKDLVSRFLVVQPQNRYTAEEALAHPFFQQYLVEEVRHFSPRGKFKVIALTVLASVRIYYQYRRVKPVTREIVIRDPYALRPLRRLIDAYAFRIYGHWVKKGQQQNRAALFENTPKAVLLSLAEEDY
UniProt P49336, sequence (whole entry, looked up): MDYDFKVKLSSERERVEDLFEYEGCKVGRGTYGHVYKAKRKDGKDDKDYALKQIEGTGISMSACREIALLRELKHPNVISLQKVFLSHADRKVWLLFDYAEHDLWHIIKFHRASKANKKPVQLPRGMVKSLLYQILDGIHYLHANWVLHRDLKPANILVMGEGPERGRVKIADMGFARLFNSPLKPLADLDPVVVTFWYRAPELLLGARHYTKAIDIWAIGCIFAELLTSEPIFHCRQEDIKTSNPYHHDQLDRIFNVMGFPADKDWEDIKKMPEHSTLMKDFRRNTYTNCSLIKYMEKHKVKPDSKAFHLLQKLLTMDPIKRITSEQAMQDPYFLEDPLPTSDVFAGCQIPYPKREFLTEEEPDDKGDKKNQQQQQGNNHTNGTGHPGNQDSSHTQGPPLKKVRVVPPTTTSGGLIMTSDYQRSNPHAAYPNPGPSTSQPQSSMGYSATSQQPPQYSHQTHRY
UniProt P07948, sequence (whole entry, looked up): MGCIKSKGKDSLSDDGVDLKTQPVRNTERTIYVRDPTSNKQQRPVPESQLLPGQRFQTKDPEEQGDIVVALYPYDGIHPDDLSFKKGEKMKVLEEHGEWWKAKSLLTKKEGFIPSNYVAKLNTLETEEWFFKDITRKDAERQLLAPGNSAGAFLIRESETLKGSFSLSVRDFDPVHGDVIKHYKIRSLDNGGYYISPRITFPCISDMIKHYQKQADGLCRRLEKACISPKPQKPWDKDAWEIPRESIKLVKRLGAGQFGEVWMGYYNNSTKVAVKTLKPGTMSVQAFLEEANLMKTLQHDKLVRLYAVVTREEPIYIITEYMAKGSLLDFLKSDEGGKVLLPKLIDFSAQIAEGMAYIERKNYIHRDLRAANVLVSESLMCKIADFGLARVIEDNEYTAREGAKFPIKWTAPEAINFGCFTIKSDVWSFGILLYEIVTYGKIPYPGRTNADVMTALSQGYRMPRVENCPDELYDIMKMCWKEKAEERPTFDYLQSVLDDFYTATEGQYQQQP

Study 1 — species: mouse; matrix: microsomes or S9; tested at: 2 µM; time: 0.5 h; measurement: remaining compound
CCc1cc2c3c([nH]c2cc1S(=O)(=O)NCCCN1CCOCC1)CC(C)(C)CC3=O: 63.9%
O=C1Nc2ccccc2Oc2cc(Oc3cccc4cccnc34)c(S(=O)(=O)N3CCOCC3)cc21: 2.53%
CCOc1cc(=O)n2c(c1C(=O)Nc1cccc(C(=O)OC)c1)CCCC2: 42%
Cc1c(Cl)cccc1-c1ccc(CNCCN(C)C)o1: 1.8%
COc1ccccc1CNC(=O)c1c(OCC(C)C)cc(=O)n2c1CCCCC2: 1.95%
COc1cc(CN2CCN(S(=O)(=O)c3ccc(NC(C)=O)cc3)CC2)cc(OC)c1OC: 12.7%
CCCN(CC(=O)N(C)C)C(=O)CS(=O)(=O)N1CCC(C)CC1: 15.2%

Study 2 — technique: competition with immobilised ligand; tested at: 1 µM; measurement: remaining binding
SMILES: O=C(O)[C@@H]1[C@@H](Cn2nnc3ccccc3c2=O)CC[C@H]1C(=O)c1ccc(OCCC2CCOCC2)cc1
CDK8 (Homo sapiens, UniProt P49336); cell-free assay: 91%
HASPIN (Homo sapiens, UniProt Q8TF76); cell-free assay: 88%
PAK5 (Homo sapiens, UniProt Q9P286); cell-free assay: 96%
PRKG2 (Homo sapiens, UniProt Q13237); cell-free assay: 100%
Non-receptor tyrosine-protein kinase TYK2, JH2 (TYK2, Homo sapiens, UniProt P29597); cell-free assay: 100%
PHKG1 (Homo sapiens, UniProt Q16816); cell-free assay: 100%
EIF2AK1 (Homo sapiens, UniProt Q9BQI3); cell-free assay: 100%
DSTYK (Homo sapiens, UniProt Q6XUX3); cell-free assay: 84%
ITK (Homo sapiens, UniProt Q08881); cell-free assay: 87%
MAP3K15 (Homo sapiens, UniProt Q6ZN16); cell-free assay: 54%
PIP4K2C (Homo sapiens, UniProt Q8TBX8); cell-free assay: 89%
MAP4K1 (Homo sapiens, UniProt Q92918); cell-free assay: 91%
LATS2 (Homo sapiens, UniProt Q9NRM7); cell-free assay: 100%
BMP2K (Homo sapiens, UniProt Q9NSY1); cell-free assay: 100%
Myosin-IIIb (MYO3B, Homo sapiens, UniProt Q8WXR4); binding: 90%

Study 3 — cell line: mouse MPNST tumor cells; technique: high-content nuclear imaging; refers to: cell number; tested at: 10 µM; time: 12 h; setting: mean of 2 replicates; baseline: plate mean; direction: higher = more cells; measurement: nuclei count
CCOc1ccc2ccccc2c1C(=O)N[C@@H]1C(=O)N2[C@@H]1SC(C)(C)[C@@H]2C(=O)O: 0.0502 z-score
Cc1ncc([N+](=O)[O-])n1CCO: 1.32 z-score and -0.356 z-score
CCN[C@H]1CN(CCCOC)S(=O)(=O)c2sc(S(N)(=O)=O)cc21: -0.442 z-score
C=CCOc1ccccc1OCC(O)CNC(C)C (centres unmarked): 1.04 z-score
N#Cc1cccc(C(=O)Nc2cc(-c3ccccc3)nn2-c2ccccc2)c1: 0.648 z-score
CCOC(=O)c1cc(C#N)c(N2CCC(C(=O)NS(=O)(=O)Cc3ccccc3)CC2)nc1C: 0.255 z-score
Cc1cc(=O)oc2cc(O)ccc12: 1.5 z-score

Study 4 — effect on: enzyme activity; action: inhibitor; tested at: 0.5 µM; baseline: control; measurement: remaining activity
SMILES: CCN(CC)CCNC(=O)c1c(C)[nH]c(/C=C2\C(=O)Nc3ccc(Cl)cc32)c1C
DAPK1 (Homo sapiens, UniProt P53355): 47.7%
PRKACA (Homo sapiens, UniProt P17612): 90%
TGFBR2 (Homo sapiens, UniProt P37173): 113%
Protein kinase C beta type, isoform beta-I (PRKCB, Homo sapiens, UniProt P05771): 98.1%
Cyclin-dependent kinase 5, with p25 (CDK5, Homo sapiens, UniProt Q00535): 95.1%
Tyrosine-protein kinase Lyn, isoform B (LYN, Homo sapiens, UniProt P07948): 21.9%
Cyclin-dependent kinase 4, with cyclin D1 (CDK4, Homo sapiens, UniProt P11802): 74.1%
CAMKK2 (Homo sapiens, UniProt Q96RR4): 48%
PRKCA (Homo sapiens, UniProt P17252): 93.1%
CAMK2D (Homo sapiens, UniProt Q13557): 7.25%
GRK3 (Homo sapiens, UniProt P35626): 97.8%
MAP3K3 (Homo sapiens, UniProt Q99759): 30.6%
STK10 (Homo sapiens, UniProt O94804): 7.11%
cGMP-dependent protein kinase 1, isoform beta (PRKG1, Homo sapiens, UniProt Q13976): 76.4%
TGFBR1 (Homo sapiens, UniProt P36897): 95.5%
CHEK2 (Homo sapiens, UniProt O96017): 6.42%
NEK2 (Homo sapiens, UniProt P51955): 77.2%
STK39 (Homo sapiens, UniProt Q9UEW8): 81.9%
MAPK9 (Homo sapiens, UniProt P45984): 109%
OXSR1 (Homo sapiens, UniProt O95747): 80.1%
DAPK2 (Homo sapiens, UniProt Q9UIK4): 86.7%

Repeated from above (study 3):
CCOc1ccc2ccccc2c1C(=O)N[C@@H]1C(=O)N2[C@@H]1SC(C)(C)[C@@H]2C(=O)O: 0.0502 z-score
Cc1ncc([N+](=O)[O-])n1CCO: 1.32 z-score and -0.356 z-score
CCN[C@H]1CN(CCCOC)S(=O)(=O)c2sc(S(N)(=O)=O)cc21: -0.442 z-score
C=CCOc1ccccc1OCC(O)CNC(C)C (centres unmarked): 1.04 z-score
N#Cc1cccc(C(=O)Nc2cc(-c3ccccc3)nn2-c2ccccc2)c1: 0.648 z-score
CCOC(=O)c1cc(C#N)c(N2CCC(C(=O)NS(=O)(=O)Cc3ccccc3)CC2)nc1C: 0.255 z-score
Cc1cc(=O)oc2cc(O)ccc12: 1.5 z-score
